# Results from different studies.
# Every numbered part comes from another study and shows a few of its results, in no order. Positions count from the first letter of the parent shown.
# Chain of UniProt O75116 (whole entry, looked up): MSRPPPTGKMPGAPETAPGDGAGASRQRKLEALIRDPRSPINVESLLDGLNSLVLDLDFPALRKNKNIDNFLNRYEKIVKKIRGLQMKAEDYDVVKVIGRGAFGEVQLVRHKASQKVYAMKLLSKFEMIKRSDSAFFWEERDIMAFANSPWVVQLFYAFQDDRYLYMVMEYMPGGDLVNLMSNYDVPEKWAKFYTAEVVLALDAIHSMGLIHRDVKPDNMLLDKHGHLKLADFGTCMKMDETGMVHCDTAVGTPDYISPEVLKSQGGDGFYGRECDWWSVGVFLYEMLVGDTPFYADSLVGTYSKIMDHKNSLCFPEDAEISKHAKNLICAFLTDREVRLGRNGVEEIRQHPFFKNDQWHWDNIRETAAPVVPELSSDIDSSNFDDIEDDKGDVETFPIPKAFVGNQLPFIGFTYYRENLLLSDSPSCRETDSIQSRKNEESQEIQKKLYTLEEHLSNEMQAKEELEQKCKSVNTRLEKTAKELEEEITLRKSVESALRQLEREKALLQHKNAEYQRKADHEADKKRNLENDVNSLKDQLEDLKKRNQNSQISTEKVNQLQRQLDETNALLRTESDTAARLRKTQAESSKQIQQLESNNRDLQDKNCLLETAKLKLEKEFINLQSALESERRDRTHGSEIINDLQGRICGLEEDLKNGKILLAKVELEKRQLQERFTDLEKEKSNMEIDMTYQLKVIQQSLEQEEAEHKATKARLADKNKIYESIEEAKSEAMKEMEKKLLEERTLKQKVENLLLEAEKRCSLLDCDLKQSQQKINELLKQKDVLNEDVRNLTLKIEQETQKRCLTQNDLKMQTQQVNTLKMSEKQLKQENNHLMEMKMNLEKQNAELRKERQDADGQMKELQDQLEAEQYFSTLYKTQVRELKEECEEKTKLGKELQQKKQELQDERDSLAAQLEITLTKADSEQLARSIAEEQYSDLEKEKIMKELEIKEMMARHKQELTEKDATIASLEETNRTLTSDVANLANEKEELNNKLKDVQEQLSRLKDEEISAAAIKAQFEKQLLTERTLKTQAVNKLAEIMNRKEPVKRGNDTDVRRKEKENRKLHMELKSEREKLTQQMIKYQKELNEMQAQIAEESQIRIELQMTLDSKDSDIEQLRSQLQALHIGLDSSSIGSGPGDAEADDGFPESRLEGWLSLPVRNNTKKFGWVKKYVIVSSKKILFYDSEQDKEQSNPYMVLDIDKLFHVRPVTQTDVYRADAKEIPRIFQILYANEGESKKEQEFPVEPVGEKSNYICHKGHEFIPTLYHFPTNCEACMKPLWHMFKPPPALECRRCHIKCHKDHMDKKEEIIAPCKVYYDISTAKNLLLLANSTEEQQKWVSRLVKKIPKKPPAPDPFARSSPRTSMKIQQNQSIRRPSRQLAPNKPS

# Study 1
# Target: RNA binding protein fox-1 homolog 2, RRM domain, GST-SBP tag (RBFOX2, Homo sapiens, UniProt O43251-10, residues 100-194)
# Method: RNA Bind-n-Seq
# Form: RNA
# Sample: in vitro
# Concentration: 365 nM
# Notes: natural RNA segment, single round, ends assumed
# Baseline: no-protein control
# Direction: higher = stronger binding
# Shared flanks, not repeated: GGGAGUUCUACAGUCCGACGAUC … UGGAAUUCUCGGGUGCCAA
# Construct (chain): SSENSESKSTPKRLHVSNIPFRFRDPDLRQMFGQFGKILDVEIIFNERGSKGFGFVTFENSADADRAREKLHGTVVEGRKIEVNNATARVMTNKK
Oligonucleotide,RBNS enrichment (R)
GGAGGAAGGAAGCCACUGUUAACUGUGUAGUGUUACAGCAUAUUGCACAAAAGGUUUUGGUUUUGGUCUGGUGUAGCUUUGGCUGUCCUGAAAUGAAACACUCACUAUAU,0.453
CAUGCCAGAAGGCCAAAGGACAGCGUGGUGCACACCUUCACACCAAGGACAACUUCAGGAGGGUGCAGUGAGGGCAGCCGUGUGGAGUCUUGCUUUGCAUUUGAUAGUGU,0.898
CCCAAGUCAGGAAGACCAUUAAGAAUAGGAGGAGAGGGCUCUGCCUCAACUUUCCUAGGAAAGAGCCCACCUCGGAGAUAGCUACGGUUUUCUCUGGUGGAGAUGGUGAG,0.288
UCUUUCUGUUCUCUUUACUCUUCUCACAGAUCAGAUCACUCCAUAGAAGCCUGUGGGUUUCGAUGGUUUCUUCUAUACACCUUUUUGGUUGACCAGUAUUACUAUACAAU,0.451
GCUCUGUGGAAAGGCAGUAUCUCUGGUGGGGACGCUGGUCCACAUCGGCCUCUGCUUGUACAUCCAUCCCACCCAGCAGUCGCCGAACAUCAUAGUCGGGAGCCAUUUCA,0.198
CUUCAACUUACUUGUUCUAAGCACAGGGUUUUUUUUAUUUAGCAUCAAAGGACAUUUUUACUUUCUUGGAUUUAGAGCCAACAACUAGGAACGUACUUAUGUAGGACAGA,0.77
CGAGAUGGAUCAGGGAGUUCUAGCUGCACACACCCCGAGCGCCUGAGCCCUCAGAAUGCCCACCAUGCACACAGAGACUCCAUUCUCCCCAGGACCAAGUCCUCUGCUGU,0.356
UGCCCUUGGGGGUUGCAGGCUGCCCCCUUCCUGCCAGACCGGAGGGGCUGGGGGGAUCCCAGCAGGGGGAGGGCAAUCCCUUCACCCCAGUUGCCAAACAGACCCCCCAC,0.323

# Study 2
# Target: TAR DNA-binding protein 43, full length, His tag (TARDBP, Homo sapiens, UniProt Q13148, residues 1-414)
# Method: RNA Bind-n-Seq
# Form: RNA
# Sample: in vitro
# Concentration: 20 nM
# Notes: 6-mer, flanks averaged, single round
# Together with: 150 mM KCl
# Baseline: input library
# Direction: higher = stronger binding
Oligonucleotide,6-mer enrichment (R)
AACUAU,0.64
GAGUAU,0.92
GCGUAC,0.866
GAUAAG,0.957
GAUGCC,0.834
CGGUGC,1.3
UGGCGG,3.46
CUAGAG,0.927

# Study 3
# Target: FOS, bZIP domain (human)
# Method: DHFR protein complementation
# Sample: yeast
# Notes: single substitutions, most at no-binding floor
# Baseline: wild-type JUN-FOS pair
# Direction: higher = stronger binding
# Parent: JUN, bZIP domain (human); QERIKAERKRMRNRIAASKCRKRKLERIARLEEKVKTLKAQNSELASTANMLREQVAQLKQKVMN; partner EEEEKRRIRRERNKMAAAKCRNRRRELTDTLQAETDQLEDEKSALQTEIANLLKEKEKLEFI
Change,binding fitness [natural log]
S43A,0.124
E54N,-0.148
E44C,-0.234
L45F,-0.723
Q41W,-1.02
L38E,-1.12
Q55D,-0.375
R53V,-1.03

# Mixed results
SMILES,target,test,setting,how to read,measurement,result
O=C(O)c1ccc2c3c1cccc3c(=O)n1c3ccccc3nc21,"Rho-associated protein kinase 2 (ROCK2, Homo sapiens, UniProt O75116)","enzyme activity, inhibitor",0.5 µM,baseline: control,remaining activity,99%

# Repeated from above (study 3):
Change,binding fitness [natural log]
L45F,-0.723
Q41W,-1.02
